Measurements collected from several papers.
A part holds a random share of what one study measured.

Sample 1 — technique: RNA Bind-n-Seq; form: RNA; sample: in vitro; tested at: 100 nM; reference: input RNA pool; direction: higher = stronger binding
Target: RING finger protein unkempt homolog, zinc fingers 1-6, SBP tag (UNK, Homo sapiens, UniProt Q9C0B0, residues 30-357)
UniProt Q9C0B0, sequence (30-357, looked up): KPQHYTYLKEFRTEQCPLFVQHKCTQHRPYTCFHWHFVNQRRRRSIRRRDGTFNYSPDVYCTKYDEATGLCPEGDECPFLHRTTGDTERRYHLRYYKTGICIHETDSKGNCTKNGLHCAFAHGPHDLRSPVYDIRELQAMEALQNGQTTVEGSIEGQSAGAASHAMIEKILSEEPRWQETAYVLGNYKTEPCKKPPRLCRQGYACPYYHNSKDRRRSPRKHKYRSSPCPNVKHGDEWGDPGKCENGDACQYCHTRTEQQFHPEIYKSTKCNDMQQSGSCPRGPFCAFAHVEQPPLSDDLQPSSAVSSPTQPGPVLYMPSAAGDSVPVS
Setting: RNA with constant flanks, vertebrate orthologous sites, ends assumed
All sequences stand within: GGGAGUUCUACAGUCCGACGAUC … CAACAGAGGAUUGAGCAUCA
Sequence	bound/input enrichment [ratio]
AGCCUGCACCAGUGCUCUUCUGUGGAAGAGAUGAACUGGGGAAAACAUCUUUUUACAGACUACUUUGUUUCUAAAUUAUGACCAAAAAUAUUUUGGUAUUUCUUUAUAUAUGGAAUCUUU	0.428
ACAGAAGAAGAGCUCACAACUCAAAAGGAACUAUUAAAAGAGUUUCUAAUGGCUGAAAGCUAGGAAAAAUUAGGACAAUUUUACAAAUGAGCCAUUAAAACAAAACAAAAAAAGAUAUGG	1.1
UUCAGGCUCAAUUGACUGUUUCACAGCAUUCCUUACACAGCUAUUUAACGAGUACAAGUGGAGUUAAUUUUCAGGAUACGUGUAGGCACUCGGCAUUAUCCUGCAGUCCAGUUGGAGAUG	0.22
UGUAAAAUAUUUGAUGCAGUGUAUAAAUUAUCCAAGGCAGUGACUUCAGCUUUAUAUAUAUCGCUAGUUUUAAAAUCAUCUACUUUUAUUUAAACUUCUAGAUUGGAUUAUUUGCUAUUG	0.51
CAAAUUCCCCAUUGUCACUGAGAACCACCAAAUCUGACUUUUACAUUUGGUCUCAGAAUUUAGGUUCCUGCCCUGUUGGGGUUUUUUUUUUUUUGUUUGUUUUUUUGUUUUUUUGUUUCG	1.93
UAUCUUGGUUUGGGGUAGAGGGGAGGGAGGGGCAGGACAGUGUGGAAUCUCUAAGGCGUAUGGUUAGAUAGGUGGCACGAUUAGUUCUGAUUGGGCCUUUAUGUUAAAAACCUCUGGGGG	0.895
GUGAGGGUCUACUGACCACUCACUGUUAUGUCUGGUAUCUGUAAACACUCUUUUCGUUCUUAGUCUUUUUCUUGUAUAAUUGAUGUUCUUUAAAAUUGUUAAUGUAUAACAGGGCUUAUG	1.83
AAGAUGGUGGUUGUACAUUAUUUCAUUUAGAAAAUAUAAAAAUUCAUUUUGUUUUGAAGCUAGGUAUUAACUGGAAUAGCUAUAUAUCCCUGAGAAUGGGGCAAUUGUGCCCUUCCCUUG	1.5

Sample 2 — technique: RNA Bind-n-Seq; form: RNA; sample: in vitro; tested at: 1 µM; setting: whole 134-nt RNA, ends assumed; added: 150 mM KCl; reference: input library; direction: higher = stronger binding
Target: Ras GTPase-activating protein-binding protein 1, C-terminal RGG region (G3BP1, Homo sapiens, UniProt Q13283)
UniProt Q13283, sequence (whole entry, looked up): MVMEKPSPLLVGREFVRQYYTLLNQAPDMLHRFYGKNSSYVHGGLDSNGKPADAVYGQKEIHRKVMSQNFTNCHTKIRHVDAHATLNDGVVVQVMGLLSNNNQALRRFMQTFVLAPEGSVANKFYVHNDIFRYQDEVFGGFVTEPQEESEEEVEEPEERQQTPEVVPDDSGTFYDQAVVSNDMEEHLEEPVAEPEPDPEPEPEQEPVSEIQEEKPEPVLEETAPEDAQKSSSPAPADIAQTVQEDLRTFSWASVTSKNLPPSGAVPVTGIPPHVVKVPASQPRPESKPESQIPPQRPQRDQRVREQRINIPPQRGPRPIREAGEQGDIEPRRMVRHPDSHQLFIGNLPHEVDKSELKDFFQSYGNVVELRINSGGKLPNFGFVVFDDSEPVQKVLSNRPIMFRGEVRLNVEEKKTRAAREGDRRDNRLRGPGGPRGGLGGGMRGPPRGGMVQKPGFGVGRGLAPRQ
All sequences stand within: GGGAGUUCUACAGUCCGACGAUC … UGGAAUUCUCGGGUGUCAAGG
Sequence	log2 enrichment
GUCCUGUGCUACACAUCGUAUGUACCGAAUCGGGGUUUGGGGAAAGGGGAAAAAGGGGAAAGUAUUAUGUUACGCCGUUCGGAUCUGCAC	2.57
ACCAUGCAGGUGGGCAUCUUUGGGAAGUGGGGCAAGGGGGGGAUAGGGAGGGGGGUAACACUUUGGGAACAGGUGGUCCCAGGUGGUUUC	1.83
UGGUCAUGGGAUGGAGAACCAGUUCUUCCCUUAUAUCUUCACCAUAUGACUAUUGACCCUGUCUUAGGCUGCUCCCAGGCCGUUCCAUUG	0.692
UCCUCAAGUCCUGUGCUACACAUCGUAUGUACCGAAUCGGUUGGUUGGUUGGAAAGUAUUAUGUUACGCCGUUCGGAUCUGCACUUCCAG	-0.0836
UCCUGUGCUACACAUCGUAUGUACCGAAUCGGUUUUUUGGUUUUUUGGGGUUUUUUGGGGAAAGUAUUAUGUUACGCCGUUCGGAUCUGC	-0.958
ACCAUGCAGGUGGGCAUCUUUGGGAAGUGGGGCAAGGGGGGGAUAGGGAGGGAGGUAACACUUUGGGAACAGGUGGUCCCAGGUCGUUUC	2.1
UGGAUAUGGUUAUAGAAGAAGUGGCCGAGAUAAAUAUGGCCCUCCUACUCGCACAGAGUACAGACUUAUUGUGGAGAAUUUGUCAAGUCG	-1.38
UGGGAGGUGGAUUUUGUUUAUUUUUUUAGCUCAUUUCCAGGGGUGGGAAUUUUUUUUUAAUAUGUGUCAUGAAUAAAGUUGUUUUUGCAA	2.54
UGGUUCUGGCAUUUAUGACCCUUGUGAAAAAGAAGCCACUGAUGCUAUUGGGCAUCUAGACAGACAGCAACGGGAAGAUAUCACACAGAG	-1.41
CCUGUGCUACACAUCGUAUGUACCGAAUCAAACCCCCAAACCCCCCCAAACCCCCCCAAAAAAGUAUUAUGUUACGCCGUUCGGAUCUGC	-0.914
UUCAUGAGGACCUCCGCCUGCUCUUGGAGACCCACCUGCCGUCCAAAAAGAAGAAAGUACUCUUGGGAGUUGGGGAUCCCAAGAUUGGUG	-0.0546
CAAGUCCUGUGCUACACAUCGUAUGUACCGAAUCGGUUUUUGGUGGUUUUUUUGGAAAGUAUUAUGUUACGCCGUUCGGAUCUGCACUUC	-1.55
CUGUGCUACACAUCGUAUGUACCGAAUCGGGGCCCCCCCGGGCCCCCCCGGGCCCCCCCGGAAAGUAUUAUGUUACGCCGUUCGGAUCUG	-1.64
AGUCCUGUGCUACACAUCGUAUGUACCGAAUCGGAAAAAAAGGUUUUUGGUUUUUGGAAAGUAUUAUGUUACGCCGUUCGGAUCUGCACU	-2.21

Sample 3 — technique: protein binding microarray; form: double-stranded DNA, one strand shown; sample: in vitro; tested at: not given; reference: not given; direction: higher = stronger binding
Target: Histone acetyltransferase KAT6A, both winged helices, GST fusion (KAT6A, Homo sapiens, UniProt Q92794, residues 1-181)
Setting: 8-mer, flanks averaged, mean of 2 arrays, mostly near background
Residues (chain): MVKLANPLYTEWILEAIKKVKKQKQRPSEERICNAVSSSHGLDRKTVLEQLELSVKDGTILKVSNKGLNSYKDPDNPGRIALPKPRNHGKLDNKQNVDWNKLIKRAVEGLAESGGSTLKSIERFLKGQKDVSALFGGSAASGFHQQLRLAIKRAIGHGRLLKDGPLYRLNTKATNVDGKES
Sequence	E-score
TATCGGGA	0.02
GATGATAC	-0.0107
CGGCTCCC	0.143
AGAACAAC	0.0198
CTCCTAGA	-0.166
TACTTATA	0.0189
ACTACTAG	-0.005
AGGGATCA	-0.258
ACGCATAC	0.222
GCACAGCA	-0.0449
CTTAGGGC	-0.0538
CCGAGTAC	0.137
CGAGGAAC	0.165
ACAATCGG	0.157
ATCGGAAC	0.0865
GCTCTTAA	-0.0678
CATGGGTA	-0.0673
GGCAATTA	-0.0493
ACCCAACC	-0.137
ATCGGCAC	0.195
CCCAATGC	-0.14
AGACAAAT	-0.152

Sample 4 — technique: protein-binding microarray; form: double-stranded DNA, one strand shown; sample: in vitro; tested at: 2200 nM top; setting: 60-bp whole probe; added: salmon DNA 0.4 mg/ml; reference: random background probes; direction: higher = stronger binding; all sequences stand within: GCCTAGCAC … GTCTTGATTCGCTTGACGCTGCTG
Target: Interferon regulatory factor 7, full length, phosphomimetic (IRF7, Homo sapiens, UniProt Q92985, residues 1-503, S471D/S472D/S475D/S476D/S477D/S483D/S484D/S487D)
Target sequence (chain): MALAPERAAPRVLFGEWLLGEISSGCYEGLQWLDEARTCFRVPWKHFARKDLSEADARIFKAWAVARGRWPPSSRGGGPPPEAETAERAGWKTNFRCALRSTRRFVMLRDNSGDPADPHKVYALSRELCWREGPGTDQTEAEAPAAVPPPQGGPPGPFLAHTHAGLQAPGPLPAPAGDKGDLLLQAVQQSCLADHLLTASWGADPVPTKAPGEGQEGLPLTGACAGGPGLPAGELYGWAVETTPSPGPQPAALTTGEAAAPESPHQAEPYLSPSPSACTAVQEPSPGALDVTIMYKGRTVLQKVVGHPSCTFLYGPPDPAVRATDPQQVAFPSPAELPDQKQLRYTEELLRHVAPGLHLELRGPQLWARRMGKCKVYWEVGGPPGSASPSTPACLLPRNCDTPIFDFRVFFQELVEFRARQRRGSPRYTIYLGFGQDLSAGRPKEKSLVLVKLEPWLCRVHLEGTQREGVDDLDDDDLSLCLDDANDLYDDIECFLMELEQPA
Sequence	fitted relative affinity [z-score]
TTAGATATCAGTATCCATTAGTGCTAG	0.519
TCACCTATCCAAGTTCCCACTGTGCTA	1.98
ATAAAAGAACTCCTGGGGGAGTGCTAG	-0.538
AAGCCAGCCAAGGCCACTGTGTGCTAG	-0.823
TCAGGTATCGACTTTCGGTTAGTGCTA	6.28
GACGATTTCAGTATCGAAACGTGCTAG	1.08
GACGAACTGAGTTTGGAGACGTGCTAG	-0.276
GAAGACTTTGGTTTGTACACGTGCTAG	0.287
TTAGGTATCGGTATCGGTTTGTGCTAG	2.16
TTAAATTTCAGTTCCGATTAGTGCTAG	2.04
TTAGATTTCGGGTATCAATTAGTGCTA	2.54
TCACTCTTCTTTTGCTAACTGTGCTAG	1.94
TTAGGTTTCCTGTTCCTTTAGTGCTAG	3.04
GTCGGTCTCGGTCTCGGGACGTGCTAG	0.534
TTAGCTTTCCTTTCCCTTTAGTGCTAG	5.53
GACGAACTGAGTTCCGAGACGTGCTAG	0.0608
TTAGGTATCCTACTGCTTTTGTGCTAG	0.59
GACGATATCGGATATCGAGACGTGCTA	0.233
TCATTTTCCCCCCTCACACTGTGCTAG	3.06
GATGGTTTCCTTTCCCTGACGTGCTAG	4.35
GACGATTTCGGGAATCGAGACGTGCTA	0.994
TTAGTACTGAGTTTCGATTAGTGCTAG	4.3

Sample 5 — technique: protein-binding microarray; form: double-stranded DNA, one strand shown; sample: in vitro; tested at: 0.8 µM; setting: whole 60-bp probe, no competitor; direction: higher = stronger binding; all sequences stand within: … GTCTTGATTCGCTTGACGCTGCTG
Target: Centromere-binding protein 1, full length, N-terminal tag (CBF1, Saccharomyces cerevisiae, UniProt P17106, residues 1-351)
UniProt P17106, sequence (whole entry, looked up): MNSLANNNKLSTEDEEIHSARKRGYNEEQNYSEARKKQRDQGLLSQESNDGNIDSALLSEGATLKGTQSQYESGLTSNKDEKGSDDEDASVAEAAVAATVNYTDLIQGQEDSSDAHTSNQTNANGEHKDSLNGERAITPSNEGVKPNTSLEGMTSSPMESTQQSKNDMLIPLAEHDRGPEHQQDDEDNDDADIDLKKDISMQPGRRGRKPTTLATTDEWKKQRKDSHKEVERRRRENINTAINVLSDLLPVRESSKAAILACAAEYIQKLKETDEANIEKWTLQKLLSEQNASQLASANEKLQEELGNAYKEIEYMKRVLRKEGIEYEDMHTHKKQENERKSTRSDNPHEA
Sequence	fluorescence intensity [a.u.]
CTATTTCTGAATGAAAACGTGAAAAGCTTCGCCTTC	605
TGTACGAAGCTATTGAATGTGACTATAGTAGTTAGG	553
GAATTTTTACTAGGCATCAGAACTGTCTCCGAATAG	522
GAAAATTTTTAAGTCAGTGTGACCCAATAAGAATAG	756
GAACTTTATATATCCCACGAGGAGACTGCGCGATAG	573
GAATATTACCTGACTCAGGTGATGGAGTGCTCATAG	614
GAACTATTAAATAAACATCAGAACACATTGAGGTAG	579
CTATGACCACAGCCGAAGGTGACGAAGGGATGGTTC	499
CTAAATGGCACTAATCACCTGCCTTCTGTTGACTTC	791
TGTACGAAGCTATGTGATTAAAATATAGTAGTTAGG	579
CTAAATAAATCTGCTTACGTGACATTTTTTACTTTC	721
CTACGCTATCACTTACATGTGATATCATTTCTGTTC	2160
CTAAACGATTCAAAGCAGGTGAATTTCCATTACTTC	505
CTATTATTACTACGTGGTCAATTTTCTCTTTCCTTC	521
GAACTTGTTGCTAGGAACGTGATGATGGATTTCTAG	1060
GAATTACCAAATAACCACCTGAACCACCCCACATAG	543
GAACCACACTATGCTGCACACGTGAAATGATGATAG	2870
CTATACTTCGATAAGCACGAGGAAATGTAATATTTC	639
GAAAATTATATAAAACACATGCGGATTAGTTCATAG	585
TGTACGAAGCTATGACACATGGATATAGTAGTTAGG	581
TGTACGAAGCTATCGTGGTTGGTTATAGTAGTTAGG	542
CTAGCCTAATATATCCACGTTCTCCGTTGAATTTTC	580
CTAATTCTTACGAAACACGTCACAGGGTCAAAATTC	2560
GAAGAAAAAACACCACACGCAATGGCCGCATATTAG	490
GAAATCTGTATGAACCACGTGACTTAACATGAATAG	17800

A few entries again (sample 4):
Sequence	fitted relative affinity [z-score]
TTAGATATCAGTATCCATTAGTGCTAG	0.519
TTAGATTTCGGGTATCAATTAGTGCTA	2.54
GACGAACTGAGTTTGGAGACGTGCTAG	-0.276
GATGGTTTCCTTTCCCTGACGTGCTAG	4.35
GACGAACTGAGTTCCGAGACGTGCTAG	0.0608
ATAAAAGAACTCCTGGGGGAGTGCTAG	-0.538
AAGCCAGCCAAGGCCACTGTGTGCTAG	-0.823
TCACCTATCCAAGTTCCCACTGTGCTA	1.98
TCATTTTCCCCCCTCACACTGTGCTAG	3.06
TTAGTACTGAGTTTCGATTAGTGCTAG	4.3
TTAGGTATCCTACTGCTTTTGTGCTAG	0.59
GTCGGTCTCGGTCTCGGGACGTGCTAG	0.534
